Results pooled from the literature.
Numbered parts are unrelated; each lists some results of a single study. Substitutions count along the parent as printed.

Block 1
Target: Prothrombin, mature alpha-thrombin (F2, Homo sapiens, UniProt P00734)
Method: aptamer microarray, sandwich
Molecule type: DNA with 2'F-ANA
Matrix: in vitro
Tested at: 200 nM
Notes: whole 15-mer aptamer, many near background
Together with: Cy3 exosite-II aptamer, 400 nM
Direction: higher = stronger binding
Sequence: GGTTGGTGTGGTTGG
Modification | mean fluorescence intensity [a.u.]
2'F-ANA at 6 11 | 439
2'F-ANA at 4 5 15 | 62.9
2'F-ANA at 1 3 4 7 11 | 192
2'F-ANA at 1 2 5 7 10 11 12 14 | 55.9
2'F-ANA at 1 6 8 9 10 12 13 14 15 | 49.5
2'F-ANA at 1 3 4 5 6 8 9 10 12 13 15 | 51.6
2'F-ANA at 3 4 5 6 7 11 | 74.7
2'F-ANA at 1 2 3 5 7 9 11 | 58.5
2'F-ANA at 1 11 14 15 | 62.9
2'F-ANA at 2 3 4 5 6 8 11 13 | 67.7
2'F-ANA at 2 4 5 6 7 11 12 13 15 | 74.6
2'F-ANA at 3 6 8 10 13 14 | 353
2'F-ANA at 3 9 10 14 | 466
2'F-ANA at 2 3 4 5 7 8 9 | 117
2'F-ANA at 1 4 6 9 10 12 15 | 56.3
2'F-ANA at 2 3 4 5 6 11 13 14 | 61.6
2'F-ANA at 1 2 5 6 7 13 14 | 47
2'F-ANA at 2 3 5 7 10 11 13 15 | 72.4
2'F-ANA at 3 4 5 7 9 10 15 | 54.7
2'F-ANA at 1 7 9 10 11 12 13 14 15 | 46.8
2'F-ANA at 4 6 8 10 13 | 65.3
2'F-ANA at 1 3 4 10 11 | 130
2'F-ANA at 2 4 6 8 9 10 12 13 | 126
2'F-ANA at 3 4 6 7 8 10 12 13 14 | 169
2'F-ANA at 1 2 3 5 9 10 11 13 | 44.4

Block 2
Target: Histone acetyltransferase KAT6A, both winged helices, GST fusion (KAT6A, Homo sapiens, UniProt Q92794, residues 1-181)
Method: protein binding microarray
Molecule type: double-stranded DNA, one strand shown
Matrix: in vitro
Tested at: not given
Notes: 8-mer, flanks averaged, mean of 2 arrays, mostly near background
Relative to: not given
Direction: higher = stronger binding
Residues (chain): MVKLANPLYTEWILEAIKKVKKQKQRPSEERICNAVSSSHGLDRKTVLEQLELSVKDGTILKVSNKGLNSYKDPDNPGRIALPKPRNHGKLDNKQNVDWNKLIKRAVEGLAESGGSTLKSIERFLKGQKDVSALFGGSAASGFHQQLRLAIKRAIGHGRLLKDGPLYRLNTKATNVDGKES
Sequence | E-score
CAATGAAG | -0.139
GTTCATAA | -0.119
AGTCGGGC | 0.116
GAGATTCA | -0.175
GCCTTCCA | -0.21
GACGAGGC | -0.0119
GAAGCATC | -0.148
ATGTATGA | 0.0722
CGATGGGA | 0.035
CAGGACCC | -0.0612
GGTGATGA | -0.0616
CGTGGGGC | -0.0941
ATTCCGTC | 0.178
AGCCTCCA | -0.171
CGTTGACA | -0.0116
AACCCGTA | 0.244
AATAGCAG | -0.239
CGTTAAAC | 0.0708
AATTTTCC | 0.0331
CGCTTAGC | 0.272
CGTAGATA | 0.0227

Block 3
Target: CCNB2, cyclin fold, Cln2 fusion (human)
Method: yeast growth competition, sequencing
Matrix: yeast
Notes: weak parent motif
Relative to: not given
Direction: higher = stronger binding
Starting sequence: RBL1 docking peptide (human); GSAKRRLFGEDPP
Substitution | normalised enrichment score
GSAKRRLFGESPP [D11S] | 0.332
GSAKVRLFGEDPP [R5V] | -0.0531
GNAKRRLFGEDPP [S2N] | 0.16
QSAKRRLFGEDPP [G1Q] | 0.117
GTAKRRLFGEDPP [S2T] | 0.198
GSAKRQLFGEDPP [R6Q] | -0.409
GSAKRTLFGEDPP [R6T] | -0.202
GSAKRRLFGEDPG [P13G] | -0.0394
HSAKRRLFGEDPP [G1H] | 0.058
GSEKRRLFGEDPP [A3E] | 0.149
GSAKRRLFGEDIP [P12I] | 0.249
GSAKRRLFGEDCP [P12C] | -0.149
GSAKRRLFGEDKP [P12K] | 0.264
GSAKRRLFGEDTP [P12T] | 0.569
GSAMRRLFGEDPP [K4M] | -0.281
GSAKRRLQGEDPP [F8Q] | -0.0275
GYAKRRLFGEDPP [S2Y] | 0.204
ESAKRRLFGEDPP [G1E] | -0.173
GSAKRRLFGPDPP [E10P] | 0.0595
GSAKRDLFGEDPP [R6D] | -0.636
GSACRRLFGEDPP [K4C] | 0.222
GSWKRRLFGEDPP [A3W] | -0.0614
GSAKRRLFWEDPP [G9W] | 0.498
GSAKRRWFGEDPP [L7W] | 0.396
GSAKRKLFGEDPP [R6K] | 0.481

Block 4
Target: ABI1, truncated, D143A, DHFR fusion (Arabidopsis thaliana, UniProt P49597)
Method: DHFR PCA, dose-response
Matrix: yeast
Notes: Hill fit, mean, not affinity
Together with: (+)-ABA, dose series
Direction: lower = more sensitive
Starting sequence: PYL1, truncated, DHFR fusion (Arabidopsis thaliana, UniProt Q8VZS8); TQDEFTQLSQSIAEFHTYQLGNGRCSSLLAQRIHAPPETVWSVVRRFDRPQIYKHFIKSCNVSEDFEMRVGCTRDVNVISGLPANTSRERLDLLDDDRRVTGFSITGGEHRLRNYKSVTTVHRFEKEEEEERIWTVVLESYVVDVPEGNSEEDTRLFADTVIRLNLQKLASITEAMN
Substitution | ABA EC50 [µM]
Q31N | 131
R155L | 13.1
P146A | 23.3
D65S | 3.07
G23K | 3.41
D95C | 10.8
P37H | 71.4
Q51W | 52.6
V136W | 7.03
L93A | 13.5
R24C | 7.55
Q19G | 4.45
E109Q | 2.87
V44T | 77.9
R123T | 2.01
E131V | 4.19

Block 5
Target: Sal-like protein 4, full length isoform B (SALL4, Homo sapiens, UniProt Q9UJQ4-2, residues 1-616)
Method: universal PBM
Molecule type: double-stranded DNA, one strand shown
Matrix: in vitro
Tested at: not given
Notes: 8-mer, flanks averaged, mean of replicates
Direction: higher = stronger binding
Sequence | E-score
AACAAAAC | 0.21
AAACAGGG | -0.125
CTTGCTCC | 0.0401
CGGGTTGA | -0.264
ACTGATCA | 0.0696
CGCCTGCC | -0.301
GAGGTGTA | -0.0973
AAACTAAA | 0.238
TGCTCACA | -0.0369
ACCCCGTC | -0.375
GCGATCAC | -0.189
GCCCTCCA | -0.222
ATGAGAAG | 0.0486
ACTGACCG | -0.254
AAAAGCCC | -0.0541
TTGACAAA | 0.313
ACAGTAAC | 0.0967
CGGTTGGC | -0.246
AGCTTCCC | -0.19
ATGCCAAT | 0.101
CTTTATTC | 0.0955
GCATCCCC | -0.157
GACGCTGC | -0.261
TATTAGGA | 0.304

Block 6
Target: CRIPT, C-terminal peptide
Method: DHFR complementation, deep sequencing
Matrix: yeast
Notes: single substitutions, model-inferred values
Relative to: wild type
Direction: higher = weaker binding
Starting sequence: ERBIN, PDZ domain 1 (human); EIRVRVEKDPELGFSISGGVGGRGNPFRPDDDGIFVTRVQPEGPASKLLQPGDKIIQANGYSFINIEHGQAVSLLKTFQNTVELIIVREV; partner TKNYKQTSV
Substitution | binding free energy change
L75V | 0.831 kcal/mol
V39L | 0.304 kcal/mol
F78E | 0.0888 kcal/mol
I55P | 0.702 kcal/mol
H68S | 1.33 kcal/mol
E67Q | 0.141 kcal/mol
K47Q | 0.0257 kcal/mol
I64G | 0.0141 kcal/mol
E42C | 0.113 kcal/mol
V82D | 1.21 kcal/mol
I2Y | 0.157 kcal/mol
K47T | 0.0737 kcal/mol
I85W | -0.000714 kcal/mol
I16Q | 0.184 kcal/mol
G69T | 0.0831 kcal/mol
G69Q | 0.008 kcal/mol
Y61F | 0.0382 kcal/mol
P44Q | 0.292 kcal/mol
G13I | 1.19 kcal/mol
F78A | -0.0568 kcal/mol
G60I | 0.333 kcal/mol
G43E | 0.555 kcal/mol
I86D | 1.1 kcal/mol
G69P | 0.477 kcal/mol
D30I | 0.422 kcal/mol
